{"data": "Measured values from different studies", "note": "Parts stem from different laboratories: compare values within a part only. Values joined by “and” are separate records of one study, mostly repeats; a detail may differ.", "chain of UniProt O00506 (whole entry, looked up)": "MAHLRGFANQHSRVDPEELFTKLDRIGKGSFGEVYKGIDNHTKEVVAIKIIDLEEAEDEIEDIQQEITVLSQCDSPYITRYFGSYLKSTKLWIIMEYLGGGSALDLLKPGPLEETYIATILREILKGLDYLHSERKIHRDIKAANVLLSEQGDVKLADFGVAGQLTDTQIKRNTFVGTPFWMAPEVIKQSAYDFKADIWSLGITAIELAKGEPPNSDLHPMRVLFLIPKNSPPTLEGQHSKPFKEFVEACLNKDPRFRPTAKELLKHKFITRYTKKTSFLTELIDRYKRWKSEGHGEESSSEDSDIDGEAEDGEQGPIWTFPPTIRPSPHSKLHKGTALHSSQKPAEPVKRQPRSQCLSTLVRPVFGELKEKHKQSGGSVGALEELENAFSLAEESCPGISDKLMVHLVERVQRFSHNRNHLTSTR", "chain of UniProt Q96RG2 (whole entry, looked up)": "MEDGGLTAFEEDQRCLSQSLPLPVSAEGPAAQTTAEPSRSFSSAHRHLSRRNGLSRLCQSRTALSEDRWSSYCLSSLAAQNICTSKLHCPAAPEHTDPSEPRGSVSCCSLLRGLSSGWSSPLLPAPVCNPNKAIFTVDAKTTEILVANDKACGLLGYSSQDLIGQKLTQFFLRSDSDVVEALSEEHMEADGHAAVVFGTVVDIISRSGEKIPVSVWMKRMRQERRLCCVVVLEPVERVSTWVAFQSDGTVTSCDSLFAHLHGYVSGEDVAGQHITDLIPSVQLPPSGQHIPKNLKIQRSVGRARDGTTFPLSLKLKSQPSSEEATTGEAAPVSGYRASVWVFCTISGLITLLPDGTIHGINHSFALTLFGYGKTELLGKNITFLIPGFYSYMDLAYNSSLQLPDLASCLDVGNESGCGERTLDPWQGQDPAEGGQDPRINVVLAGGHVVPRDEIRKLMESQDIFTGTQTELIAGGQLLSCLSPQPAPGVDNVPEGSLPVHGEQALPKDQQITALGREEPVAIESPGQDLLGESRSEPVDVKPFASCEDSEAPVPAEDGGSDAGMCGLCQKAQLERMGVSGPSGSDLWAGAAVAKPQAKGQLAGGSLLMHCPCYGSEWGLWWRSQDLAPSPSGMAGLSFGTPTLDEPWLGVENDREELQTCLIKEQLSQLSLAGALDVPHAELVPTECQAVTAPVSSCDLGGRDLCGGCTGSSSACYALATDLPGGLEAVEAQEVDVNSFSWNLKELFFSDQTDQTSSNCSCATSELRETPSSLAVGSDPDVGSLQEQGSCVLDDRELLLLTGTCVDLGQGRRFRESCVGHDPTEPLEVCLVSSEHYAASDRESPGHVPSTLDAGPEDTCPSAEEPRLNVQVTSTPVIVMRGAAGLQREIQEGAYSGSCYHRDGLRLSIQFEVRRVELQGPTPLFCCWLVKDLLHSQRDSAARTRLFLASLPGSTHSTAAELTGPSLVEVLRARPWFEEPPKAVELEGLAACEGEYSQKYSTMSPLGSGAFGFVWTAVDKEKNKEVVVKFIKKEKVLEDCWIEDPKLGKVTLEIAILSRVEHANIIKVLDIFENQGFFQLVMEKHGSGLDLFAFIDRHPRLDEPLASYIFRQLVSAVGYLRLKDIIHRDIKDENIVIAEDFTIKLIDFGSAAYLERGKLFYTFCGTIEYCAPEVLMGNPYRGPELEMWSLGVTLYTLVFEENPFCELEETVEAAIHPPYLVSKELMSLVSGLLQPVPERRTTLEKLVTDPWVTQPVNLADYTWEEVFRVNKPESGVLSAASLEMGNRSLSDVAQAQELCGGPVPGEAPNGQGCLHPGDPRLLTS", "chain of UniProt Q86Z02 (whole entry, looked up)": "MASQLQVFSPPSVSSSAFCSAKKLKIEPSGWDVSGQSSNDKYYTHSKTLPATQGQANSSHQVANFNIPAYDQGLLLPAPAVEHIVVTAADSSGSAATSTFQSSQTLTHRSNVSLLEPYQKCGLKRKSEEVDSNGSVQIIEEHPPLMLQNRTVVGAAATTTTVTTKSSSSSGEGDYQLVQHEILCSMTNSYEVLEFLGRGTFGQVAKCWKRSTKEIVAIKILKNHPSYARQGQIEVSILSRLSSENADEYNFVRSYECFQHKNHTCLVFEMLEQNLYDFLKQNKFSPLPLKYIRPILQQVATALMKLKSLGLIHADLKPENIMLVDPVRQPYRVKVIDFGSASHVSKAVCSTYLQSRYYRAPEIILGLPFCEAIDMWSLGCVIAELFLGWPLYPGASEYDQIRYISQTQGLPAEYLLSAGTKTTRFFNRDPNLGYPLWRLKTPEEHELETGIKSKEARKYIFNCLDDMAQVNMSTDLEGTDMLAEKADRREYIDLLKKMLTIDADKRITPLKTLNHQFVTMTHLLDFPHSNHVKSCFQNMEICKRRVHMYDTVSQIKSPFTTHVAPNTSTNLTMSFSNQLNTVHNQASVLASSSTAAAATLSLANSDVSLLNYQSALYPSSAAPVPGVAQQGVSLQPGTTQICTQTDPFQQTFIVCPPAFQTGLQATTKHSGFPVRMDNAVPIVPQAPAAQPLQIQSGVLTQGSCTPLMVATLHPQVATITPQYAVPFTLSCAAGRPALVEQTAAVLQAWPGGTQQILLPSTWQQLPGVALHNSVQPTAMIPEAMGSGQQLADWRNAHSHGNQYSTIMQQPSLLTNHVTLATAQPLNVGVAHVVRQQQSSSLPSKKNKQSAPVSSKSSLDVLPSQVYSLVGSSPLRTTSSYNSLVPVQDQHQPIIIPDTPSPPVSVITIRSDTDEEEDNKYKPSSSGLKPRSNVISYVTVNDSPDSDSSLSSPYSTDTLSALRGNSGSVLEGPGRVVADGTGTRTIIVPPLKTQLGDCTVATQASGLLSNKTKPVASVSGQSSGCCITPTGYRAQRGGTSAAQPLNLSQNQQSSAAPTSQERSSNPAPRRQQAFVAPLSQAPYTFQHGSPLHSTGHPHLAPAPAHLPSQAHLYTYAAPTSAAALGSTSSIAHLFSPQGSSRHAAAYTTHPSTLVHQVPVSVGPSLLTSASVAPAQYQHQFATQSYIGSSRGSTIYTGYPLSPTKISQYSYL", "chain of UniProt O75582 (whole entry, looked up)": "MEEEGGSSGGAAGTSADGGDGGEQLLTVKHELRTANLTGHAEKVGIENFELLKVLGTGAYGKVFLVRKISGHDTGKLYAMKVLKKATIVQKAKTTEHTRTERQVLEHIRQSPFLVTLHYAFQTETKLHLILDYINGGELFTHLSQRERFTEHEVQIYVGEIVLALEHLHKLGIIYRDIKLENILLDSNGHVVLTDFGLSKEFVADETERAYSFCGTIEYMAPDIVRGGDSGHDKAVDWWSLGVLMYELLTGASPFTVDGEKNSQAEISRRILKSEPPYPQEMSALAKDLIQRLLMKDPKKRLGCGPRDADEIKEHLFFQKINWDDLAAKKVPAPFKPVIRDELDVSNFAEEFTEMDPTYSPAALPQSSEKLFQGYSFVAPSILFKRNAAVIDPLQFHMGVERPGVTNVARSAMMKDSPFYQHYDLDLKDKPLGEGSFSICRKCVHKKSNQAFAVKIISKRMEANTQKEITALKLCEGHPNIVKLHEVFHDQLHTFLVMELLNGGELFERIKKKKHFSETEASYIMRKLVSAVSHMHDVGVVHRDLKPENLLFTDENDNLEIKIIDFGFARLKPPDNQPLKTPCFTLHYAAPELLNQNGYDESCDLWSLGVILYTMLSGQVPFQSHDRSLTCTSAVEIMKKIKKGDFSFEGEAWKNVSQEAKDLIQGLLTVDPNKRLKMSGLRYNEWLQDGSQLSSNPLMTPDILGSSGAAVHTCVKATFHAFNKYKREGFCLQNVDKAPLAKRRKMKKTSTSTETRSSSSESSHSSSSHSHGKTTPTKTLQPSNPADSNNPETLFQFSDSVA", "chain of UniProt Q8NG66 (whole entry, looked up)": "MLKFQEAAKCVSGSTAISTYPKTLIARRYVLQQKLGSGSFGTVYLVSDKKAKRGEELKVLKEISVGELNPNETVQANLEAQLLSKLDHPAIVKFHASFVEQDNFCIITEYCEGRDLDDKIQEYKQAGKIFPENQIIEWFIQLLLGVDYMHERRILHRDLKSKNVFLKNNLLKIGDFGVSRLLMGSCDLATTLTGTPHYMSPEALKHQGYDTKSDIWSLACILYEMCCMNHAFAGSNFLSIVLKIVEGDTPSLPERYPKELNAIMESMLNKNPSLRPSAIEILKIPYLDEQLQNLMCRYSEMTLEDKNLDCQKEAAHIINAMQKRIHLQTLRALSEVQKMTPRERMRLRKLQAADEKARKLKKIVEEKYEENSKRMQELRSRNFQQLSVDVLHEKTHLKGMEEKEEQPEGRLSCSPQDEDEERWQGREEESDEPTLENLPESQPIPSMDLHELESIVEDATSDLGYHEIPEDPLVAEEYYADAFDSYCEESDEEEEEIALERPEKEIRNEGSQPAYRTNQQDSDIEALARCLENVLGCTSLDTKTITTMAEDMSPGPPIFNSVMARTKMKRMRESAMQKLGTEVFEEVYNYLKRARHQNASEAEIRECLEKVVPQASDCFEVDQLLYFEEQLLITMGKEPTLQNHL"}
{"data": "Sample 1", "SMILES": "CCS(=O)(=O)c1cc2cc(C[C@@](O)(CC(C)(C)c3ccc(F)cc3C(N)=O)C(F)(F)F)[nH]c2cn1", "read-out": "cell-free assay", "method": "competition with immobilised ligand", "tested at": "1 µM"}
{"target": "FLT3 (Homo sapiens, UniProt P36888, D835V)", "remaining binding": "79%"}
{"target": "PLK1 (Homo sapiens, UniProt P53350)", "remaining binding": "85%"}
{"target": "EGFR (Homo sapiens, UniProt P00533, T790M)", "remaining binding": "88%"}
{"target": "CDKL2 (Homo sapiens, UniProt Q92772)", "remaining binding": "90%"}
{"target": "Tyrosine-protein kinase ABL1, non-phosphorylated (ABL1, Homo sapiens, UniProt P00519, T315I)", "remaining binding": "67%"}
{"target": "Ribosomal protein S6 kinase alpha-5, N-terminal kinase domain (RPS6KA5, Homo sapiens, UniProt O75582)", "remaining binding": "100%"}
{"target": "KIT (Homo sapiens, UniProt P10721, V559D/V654A)", "remaining binding": "81%"}
{"target": "STK26 (Homo sapiens, UniProt Q9P289)", "remaining binding": "91%"}
{"target": "CAMK2B (Homo sapiens, UniProt Q13554)", "remaining binding": "100%"}
{"target": "FGFR1 (Homo sapiens, UniProt P11362)", "remaining binding": "95%"}
{"target": "TAOK3 (Homo sapiens, UniProt Q9H2K8)", "remaining binding": "78%"}
{"target": "ULK3 (Homo sapiens, UniProt Q6PHR2)", "remaining binding": "98%"}
{"target": "EGFR (Homo sapiens, UniProt P00533, del746-750)", "remaining binding": "94%"}
{"target": "DDR2 (Homo sapiens, UniProt Q16832)", "remaining binding": "100%"}
{"target": "PTK6 (Homo sapiens, UniProt Q13882)", "remaining binding": "97%"}
{"target": "EGFR (Homo sapiens, UniProt P00533, L861Q)", "remaining binding": "100%"}
{"data": "Sample 2", "SMILES": "CS(=O)(=O)CCNCc1ccc(-c2ccc3ncnc(Nc4ccc(OCc5cccc(F)c5)c(Cl)c4)c3c2)o1", "read-out": "enzyme activity", "action": "inhibitor", "tested at": "0.5 µM", "baseline": "control"}
{"target": "PKN1 (Homo sapiens, UniProt Q16512)", "remaining activity [%]": 106}
{"target": "ALK (Homo sapiens, UniProt Q9UM73)", "remaining activity [%]": 104}
{"target": "AKT1 (Homo sapiens, UniProt P31749)", "remaining activity [%]": 95.6}
{"target": "LIM domain kinase 1 (LIMK1, Homo sapiens, UniProt P53667)", "remaining activity [%]": 95.2}
{"target": "NEK11 (Homo sapiens, UniProt Q8NG66)", "remaining activity [%]": 107}
{"target": "SRC (Homo sapiens, UniProt P12931)", "remaining activity [%]": 102}
{"target": "FGR (Homo sapiens, UniProt P09769)", "remaining activity [%]": 84.8}
{"target": "MATK (Homo sapiens, UniProt P42679)", "remaining activity [%]": 75.9}
{"target": "PRKX (Homo sapiens, UniProt P51817)", "remaining activity [%]": 111}
{"target": "FYN (Homo sapiens, UniProt P06241)", "remaining activity [%]": 99.4}
{"target": "PASK (Homo sapiens, UniProt Q96RG2)", "remaining activity [%]": 101}
{"target": "NLK (Homo sapiens, UniProt Q9UBE8)", "remaining activity [%]": 108}
{"target": "STK25 (Homo sapiens, UniProt O00506)", "remaining activity [%]": 102}
{"target": "Cyclin-dependent kinase 3, with cyclin E (CDK3, Homo sapiens, UniProt Q00526)", "remaining activity [%]": 94.6}
{"target": "Insulin receptor (INSR, Homo sapiens, UniProt P06213)", "remaining activity [%]": 105}
{"target": "ITK (Homo sapiens, UniProt Q08881)", "remaining activity [%]": 98.3}
{"target": "FLT4 (Homo sapiens, UniProt P35916)", "remaining activity [%]": 93.3}
{"target": "HIPK1 (Homo sapiens, UniProt Q86Z02)", "remaining activity [%]": 97.1}
{"target": "FER (Homo sapiens, UniProt P16591)", "remaining activity [%]": 94.6}
{"data": "Sample 3", "Compound": "CC(=O)N[C@@H](Cc1c[nH]c2ccccc12)C(=O)N[C@@H](CCC(=O)C=[N+]=[N-])C(=O)OC(C)C", "species": "C57BL/6 CES1-/- mice, MC-38 tumour", "dose": "dose not given", "added": "anti-PD-1", "baseline": "initial"}
{"conditions": "day 40 after inoculation", "body weight": "96% and 98.2% and 94% and 101% and 93.9% and 99.3%"}
{"conditions": "day 80 after inoculation", "body weight": "100% and 104%"}
{"conditions": "day 11 after inoculation", "body weight": "101% and 104% and 102% and 106%"}
{"conditions": "day 91 after inoculation", "body weight": "110% and 109%"}
{"conditions": "day 53 after inoculation", "body weight": "93.7% and 90.3% and 75.2% and 102% and 97.5% and 100%"}
{"conditions": "day 12 after inoculation", "body weight": "97.3% and 99.3% and 98.6% and 100% and 99.6% and 97.5% and 97.4%"}
{"conditions": "day 63 after inoculation", "body weight": "101% and 104% and 95.5% and 98.7%"}
{"data": "Sample 4", "species": "mouse", "medium": "microsomes or S9", "tested at": "2 µM", "time": "0.5 h"}
{"SMILES": "COC(=O)c1cccc(OCCn2c(=O)[nH]c3cc(F)c(F)cc3c2=O)c1", "remaining compound [%]": 1.62}
{"SMILES": "Clc1nc(N2CCN(c3ccccn3)CC2)c2nc[nH]c2n1", "remaining compound [%]": 0.0656}
{"SMILES": "Cc1ccc2cc(CN(CCO)S(=O)(=O)c3ccc(C(C)(C)C)cc3)c(=O)[nH]c2c1C", "remaining compound [%]": 0.0886}
{"SMILES": "O=C(OCc1cc(Cl)cc2c1OCOC2)c1cc2ccccc2[nH]1", "remaining compound [%]": 67.9}
{"SMILES": "O=S1(=O)N=C(NCCc2cccs2)c2ccccc21", "remaining compound [%]": 13.8}
{"SMILES": "O=C(Cn1c(COc2ccc(Br)cc2Cl)noc1=O)Nc1cccc(Br)c1", "remaining compound [%]": 10.5}
{"SMILES": "Cc1ccccc1NCc1cc(=O)n2nc(-c3ccccc3C)nc2[nH]1", "remaining compound [%]": 43.1}
{"SMILES": "CC(C)c1c(Cl)nc(N(C)C)nc1N1CCN(S(C)(=O)=O)CC1", "remaining compound [%]": 24.6}
{"SMILES": "CCC1(N2CCN(C(=O)c3sccc3C)CC2)CCN(S(C)(=O)=O)C1 (stereo not drawn)", "remaining compound [%]": 18.2}
{"SMILES": "Cc1ccc(-c2ccccc2CN2C[C@@H](CN(C)C)[C@@H](CO)C2)o1", "remaining compound [%]": 1.55}
{"SMILES": "CC(C)c1nc(COc2ccccc2-c2ccnc(N)n2)no1", "remaining compound [%]": 0.0527}
{"SMILES": "CCCOc1ccc(Oc2nc3ccccc3n3cnnc23)cc1", "remaining compound [%]": 12.7}
{"note": "Some of these lines once more (sample 4):"}
{"SMILES": "O=S1(=O)N=C(NCCc2cccs2)c2ccccc21", "remaining compound [%]": 13.8}
{"SMILES": "O=C(Cn1c(COc2ccc(Br)cc2Cl)noc1=O)Nc1cccc(Br)c1", "remaining compound [%]": 10.5}
{"SMILES": "Cc1ccccc1NCc1cc(=O)n2nc(-c3ccccc3C)nc2[nH]1", "remaining compound [%]": 43.1}
{"SMILES": "CC(C)c1c(Cl)nc(N(C)C)nc1N1CCN(S(C)(=O)=O)CC1", "remaining compound [%]": 24.6}
{"SMILES": "CCC1(N2CCN(C(=O)c3sccc3C)CC2)CCN(S(C)(=O)=O)C1 (stereo not drawn)", "remaining compound [%]": 18.2}
{"SMILES": "Cc1ccc(-c2ccccc2CN2C[C@@H](CN(C)C)[C@@H](CO)C2)o1", "remaining compound [%]": 1.55}
{"SMILES": "CC(C)c1nc(COc2ccccc2-c2ccnc(N)n2)no1", "remaining compound [%]": 0.0527}
{"SMILES": "CCCOc1ccc(Oc2nc3ccccc3n3cnnc23)cc1", "remaining compound [%]": 12.7}
